# Measurements gathered from unrelated publications.
# Several values in a cell are separate wells, animals, samples, runs or records. ± marks the error that the study gave.
# TNKS2: Poly [ADP-ribose] polymerase tankyrase-2 (TNKS2, Homo sapiens, UniProt Q9H2K2)
# Sequence of UniProt Q9H2K2 (whole entry, looked up): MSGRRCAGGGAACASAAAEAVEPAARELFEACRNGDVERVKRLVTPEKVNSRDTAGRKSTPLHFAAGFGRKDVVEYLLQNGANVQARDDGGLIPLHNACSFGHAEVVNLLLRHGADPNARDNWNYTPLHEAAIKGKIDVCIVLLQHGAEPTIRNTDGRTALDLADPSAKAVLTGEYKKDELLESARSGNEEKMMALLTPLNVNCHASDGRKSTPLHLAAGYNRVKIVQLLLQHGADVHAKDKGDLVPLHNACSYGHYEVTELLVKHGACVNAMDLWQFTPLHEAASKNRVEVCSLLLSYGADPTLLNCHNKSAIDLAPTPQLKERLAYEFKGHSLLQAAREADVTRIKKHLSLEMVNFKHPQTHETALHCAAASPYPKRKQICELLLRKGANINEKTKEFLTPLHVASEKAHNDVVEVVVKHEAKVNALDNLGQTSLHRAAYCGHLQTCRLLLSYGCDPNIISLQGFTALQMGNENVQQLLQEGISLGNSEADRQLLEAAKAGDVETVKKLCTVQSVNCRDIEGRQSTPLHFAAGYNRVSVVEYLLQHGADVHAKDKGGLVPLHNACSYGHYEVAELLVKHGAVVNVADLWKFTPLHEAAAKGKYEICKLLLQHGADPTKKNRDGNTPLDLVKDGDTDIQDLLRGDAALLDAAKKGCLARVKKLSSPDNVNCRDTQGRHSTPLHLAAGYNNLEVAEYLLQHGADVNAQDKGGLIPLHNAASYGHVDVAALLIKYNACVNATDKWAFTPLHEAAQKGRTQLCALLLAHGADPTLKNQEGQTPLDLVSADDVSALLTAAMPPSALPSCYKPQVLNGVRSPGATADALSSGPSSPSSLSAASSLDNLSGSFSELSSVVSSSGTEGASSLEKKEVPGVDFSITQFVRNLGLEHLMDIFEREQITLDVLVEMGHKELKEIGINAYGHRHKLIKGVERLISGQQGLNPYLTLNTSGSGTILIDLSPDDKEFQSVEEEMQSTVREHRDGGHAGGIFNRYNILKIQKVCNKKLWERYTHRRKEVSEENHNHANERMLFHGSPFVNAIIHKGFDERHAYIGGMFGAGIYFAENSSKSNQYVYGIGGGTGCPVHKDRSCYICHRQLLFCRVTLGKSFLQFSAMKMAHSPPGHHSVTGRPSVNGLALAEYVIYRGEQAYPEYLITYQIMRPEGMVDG
# HIF1AN: Hypoxia-inducible factor 1-alpha inhibitor (HIF1AN, Homo sapiens, UniProt Q9NWT6)
# Sequence of UniProt Q9NWT6 (whole entry, unmodified, looked up): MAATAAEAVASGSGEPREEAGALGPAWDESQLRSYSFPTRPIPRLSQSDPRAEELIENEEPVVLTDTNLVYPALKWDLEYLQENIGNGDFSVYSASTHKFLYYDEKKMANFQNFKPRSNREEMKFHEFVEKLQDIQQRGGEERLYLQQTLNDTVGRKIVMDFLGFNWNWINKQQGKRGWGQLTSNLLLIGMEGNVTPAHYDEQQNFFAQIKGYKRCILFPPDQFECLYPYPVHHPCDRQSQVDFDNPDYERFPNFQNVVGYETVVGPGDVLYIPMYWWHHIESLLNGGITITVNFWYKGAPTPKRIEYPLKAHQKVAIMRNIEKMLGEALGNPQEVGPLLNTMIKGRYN
# DRD3: D(3) dopamine receptor (DRD3, Homo sapiens, UniProt P35462)
# Sequence of UniProt P35462 (whole entry, looked up): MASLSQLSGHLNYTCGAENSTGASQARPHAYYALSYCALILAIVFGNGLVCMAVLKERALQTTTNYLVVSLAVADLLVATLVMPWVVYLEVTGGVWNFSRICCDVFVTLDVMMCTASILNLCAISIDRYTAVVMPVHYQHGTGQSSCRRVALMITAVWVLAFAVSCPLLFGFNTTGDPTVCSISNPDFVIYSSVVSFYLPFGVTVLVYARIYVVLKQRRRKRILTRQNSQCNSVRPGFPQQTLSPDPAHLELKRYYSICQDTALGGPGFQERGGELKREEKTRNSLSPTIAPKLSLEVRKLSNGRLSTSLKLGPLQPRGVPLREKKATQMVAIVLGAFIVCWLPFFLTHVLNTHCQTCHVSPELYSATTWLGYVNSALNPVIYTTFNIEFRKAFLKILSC
# Sequence of UniProt Q9RUB5 (whole entry, looked up): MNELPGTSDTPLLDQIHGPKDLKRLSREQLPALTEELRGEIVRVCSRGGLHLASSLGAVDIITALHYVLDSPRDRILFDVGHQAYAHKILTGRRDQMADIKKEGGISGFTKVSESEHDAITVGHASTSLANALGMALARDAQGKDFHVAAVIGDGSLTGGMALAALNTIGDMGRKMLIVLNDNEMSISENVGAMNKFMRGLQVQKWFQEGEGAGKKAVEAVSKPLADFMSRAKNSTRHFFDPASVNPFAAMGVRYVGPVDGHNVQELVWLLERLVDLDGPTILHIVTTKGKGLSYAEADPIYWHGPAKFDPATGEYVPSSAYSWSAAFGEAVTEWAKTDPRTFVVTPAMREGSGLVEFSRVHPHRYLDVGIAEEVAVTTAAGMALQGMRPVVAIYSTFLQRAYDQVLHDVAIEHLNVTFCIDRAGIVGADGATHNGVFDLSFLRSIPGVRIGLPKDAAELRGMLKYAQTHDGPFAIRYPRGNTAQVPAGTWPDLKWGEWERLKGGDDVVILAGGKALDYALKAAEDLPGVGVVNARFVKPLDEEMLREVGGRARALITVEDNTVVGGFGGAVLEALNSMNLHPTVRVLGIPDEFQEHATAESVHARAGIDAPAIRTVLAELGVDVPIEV
# Sequence of UniProt O15357 (whole entry, looked up): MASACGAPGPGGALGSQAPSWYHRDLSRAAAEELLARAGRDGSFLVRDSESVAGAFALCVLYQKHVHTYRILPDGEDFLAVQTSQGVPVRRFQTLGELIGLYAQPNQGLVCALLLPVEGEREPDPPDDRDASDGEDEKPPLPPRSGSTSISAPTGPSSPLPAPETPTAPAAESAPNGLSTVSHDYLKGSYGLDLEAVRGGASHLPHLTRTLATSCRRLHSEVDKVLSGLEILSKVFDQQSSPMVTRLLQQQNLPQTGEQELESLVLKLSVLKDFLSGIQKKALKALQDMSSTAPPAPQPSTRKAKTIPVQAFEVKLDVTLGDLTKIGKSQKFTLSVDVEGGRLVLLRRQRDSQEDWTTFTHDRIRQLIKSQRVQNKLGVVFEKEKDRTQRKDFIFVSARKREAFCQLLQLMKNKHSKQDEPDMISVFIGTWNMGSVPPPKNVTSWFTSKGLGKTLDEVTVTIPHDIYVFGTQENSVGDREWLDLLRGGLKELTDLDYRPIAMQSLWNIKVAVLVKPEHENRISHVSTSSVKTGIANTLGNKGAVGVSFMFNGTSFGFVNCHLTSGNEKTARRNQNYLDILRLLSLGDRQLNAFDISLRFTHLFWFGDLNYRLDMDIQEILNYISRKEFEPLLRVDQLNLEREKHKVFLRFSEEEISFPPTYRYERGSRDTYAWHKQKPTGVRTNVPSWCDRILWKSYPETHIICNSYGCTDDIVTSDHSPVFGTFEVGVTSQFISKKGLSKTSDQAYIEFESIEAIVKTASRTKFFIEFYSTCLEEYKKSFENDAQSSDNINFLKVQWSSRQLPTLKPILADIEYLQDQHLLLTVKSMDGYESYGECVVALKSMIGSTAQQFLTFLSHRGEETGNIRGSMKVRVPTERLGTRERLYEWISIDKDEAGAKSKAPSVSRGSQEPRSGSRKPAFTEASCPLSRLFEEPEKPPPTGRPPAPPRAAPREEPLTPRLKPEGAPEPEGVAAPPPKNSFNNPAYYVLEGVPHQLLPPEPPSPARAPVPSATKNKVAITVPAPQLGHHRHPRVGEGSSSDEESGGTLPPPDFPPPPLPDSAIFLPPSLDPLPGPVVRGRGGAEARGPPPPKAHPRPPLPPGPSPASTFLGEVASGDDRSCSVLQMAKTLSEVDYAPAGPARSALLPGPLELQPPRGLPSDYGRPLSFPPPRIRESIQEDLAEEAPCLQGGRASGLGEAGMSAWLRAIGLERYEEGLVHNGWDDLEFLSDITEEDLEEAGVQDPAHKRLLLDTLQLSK
# Sequence of UniProt P45985 (whole entry, looked up): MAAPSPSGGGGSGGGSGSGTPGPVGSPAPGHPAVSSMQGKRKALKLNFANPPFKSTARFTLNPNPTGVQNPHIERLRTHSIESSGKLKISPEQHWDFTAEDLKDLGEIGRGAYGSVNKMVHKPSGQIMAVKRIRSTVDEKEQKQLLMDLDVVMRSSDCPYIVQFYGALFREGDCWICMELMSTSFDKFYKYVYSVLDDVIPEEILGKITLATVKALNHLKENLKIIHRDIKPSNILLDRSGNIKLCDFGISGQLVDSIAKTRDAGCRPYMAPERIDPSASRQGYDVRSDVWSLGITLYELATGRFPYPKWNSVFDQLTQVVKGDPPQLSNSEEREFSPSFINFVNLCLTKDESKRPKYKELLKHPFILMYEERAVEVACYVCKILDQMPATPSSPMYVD
# Sequence of UniProt Q13547 (whole entry, looked up): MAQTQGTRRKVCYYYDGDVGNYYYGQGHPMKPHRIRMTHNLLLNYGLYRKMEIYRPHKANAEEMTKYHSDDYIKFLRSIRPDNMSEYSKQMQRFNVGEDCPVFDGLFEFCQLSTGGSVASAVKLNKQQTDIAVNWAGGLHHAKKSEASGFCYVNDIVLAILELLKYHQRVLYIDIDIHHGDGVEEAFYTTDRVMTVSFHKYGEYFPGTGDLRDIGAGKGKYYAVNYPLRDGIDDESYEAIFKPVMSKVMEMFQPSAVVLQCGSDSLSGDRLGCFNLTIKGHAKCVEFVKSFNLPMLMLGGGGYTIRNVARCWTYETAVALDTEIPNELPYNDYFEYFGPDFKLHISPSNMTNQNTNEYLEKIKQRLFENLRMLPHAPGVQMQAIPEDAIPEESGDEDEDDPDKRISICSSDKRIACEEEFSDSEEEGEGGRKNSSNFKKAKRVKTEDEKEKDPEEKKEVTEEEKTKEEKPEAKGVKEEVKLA
# Sequence of UniProt Q96FW1 (whole entry, looked up): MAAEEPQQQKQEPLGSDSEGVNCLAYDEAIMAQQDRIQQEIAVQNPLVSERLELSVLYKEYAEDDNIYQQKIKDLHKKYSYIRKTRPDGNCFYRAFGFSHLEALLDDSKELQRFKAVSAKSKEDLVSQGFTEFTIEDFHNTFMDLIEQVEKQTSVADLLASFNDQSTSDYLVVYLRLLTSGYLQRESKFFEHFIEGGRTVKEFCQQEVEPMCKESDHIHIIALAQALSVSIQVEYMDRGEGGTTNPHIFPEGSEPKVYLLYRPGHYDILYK
Structure (SMILES),target,assay,system,setting,IC50
O=c1[nH]c2c(nnn2Cc2ccccc2C(F)(F)F)c2ccccc12,TNKS2,"ADP-ribosyltransferase activity, inhibitor, NAD+ consumption fluorescence",,,0.708 µM
O=C(O)CC(=O)C(=O)O,HIF1AN,"enzyme activity, inhibitor",,pH 7,> 1000 µM
O=C(CCCCCCC(=O)Nc1ccc(CCF)cc1)NO,"HDAC1 (Homo sapiens, UniProt Q13547)",,,,0.056 µM
Cc1[nH]c(C)c(S(=O)(=O)Nc2ccc(C(F)(F)F)c(Cl)c2)c1C(=O)N1CC2(CCC2)C1,DRD3,"Go activation, antagonist, BRET",,added: dopamine,> 100 µM
COc1cc(C)c2cc(C3(NS(=O)(=O)c4ccccc4-c4ccccc4)COC3)oc2c1,"Histone acetyltransferase KAT6A, residues 194-810 (KAT6A, Homo sapiens, UniProt Q92794)","enzyme activity, inhibitor",,,> 20 µM
Cc1ccc(NS(=O)(=O)c2c(C)[nH]c(C)c2C(=O)N2CCC(F)(F)C2)cn1,DRD3,"Go activation, antagonist, BRET",,added: dopamine,> 100 µM
C=CC(=O)c1ccc2ccccc2c1,"F13A1 (Homo sapiens, UniProt P00488)","enzyme activity, inhibitor, biotin-pentylamine incorporation",,without DTT,0.006 ± 0.005 µM
O=C(N/N=C/c1ccc(C(F)(F)F)nc1)c1cc2c(s1)CCCC2,"dxs (Deinococcus radiodurans, UniProt Q9RUB5)",,,,53.4 µM and 48.8 µM
CNC(=O)c1c(C)[nH]c(C)c1S(=O)(=O)Nc1ccc(C(F)(F)F)c(Cl)c1,DRD3,"Go activation, antagonist, BRET",,added: dopamine,> 100 µM
Cc1ccc(Cn2cc(-c3ccccc3C(N)=O)nn2)cc1,TNKS2,inhibitor,,,> 10 µM
Cc1cnc(NS(=O)(=O)c2c(C)[nH]c(C)c2C(=O)N2CCC(F)(F)C2)cc1Cl,DRD3,"Go activation, antagonist, BRET",,added: dopamine,> 100 µM
Cc1ccc(Cn2nnc3c4cc(C)ccc4c(=O)[nH]c32)cc1,TNKS2,"ADP-ribosyltransferase activity, inhibitor, NAD+ consumption fluorescence",,,0.0832 µM
CN1CCN(c2ccc(Nc3ncc4cc(C#N)c(=O)n(C5CCCC5)c4n3)cc2)CC1,"TAOK2 (Homo sapiens, UniProt Q9UL54)",,,,0.0739 µM
CCCCCn1nnc2c3ccc(F)cc3c(=O)[nH]c21,TNKS2,inhibitor,,,0.174 µM
Cc1ccc(NS(=O)(=O)c2[nH]nc(C)c2C(=O)N2CCC(F)(F)C2)cc1Cl,DRD3,"β-arrestin recruitment, antagonist, PathHunter",,added: dopamine EC80,> 100 µM
N#Cc1nc2c(nc1C#N)-c1ccc(Cl)cc1C2=O,"OTUB1 (Homo sapiens, UniProt Q96FW1)","deubiquitinase activity, inhibitor, MALDI-TOF DUB",,"30 °C, 35 min pre-incubation",3.93 µM
Cc1[nH]c(C)c(S(=O)(=O)Nc2ccc(C(F)(F)F)c3cccnc23)c1C(=O)N1CCC(F)(F)C1,DRD3,"Go activation, antagonist, BRET",,added: dopamine,> 100 µM
CC[C@@H]1[C@H](F)C(=O)N[C@@H]1COc1nccc2cc(C(N)=O)c(OC)cc12,"MAP2K4 (Homo sapiens, UniProt P45985)","ATP-site probe binding, ActivX profiling",THP-1 cell lysate,Lys2 site,> 5 µM
Cc1[nH]c(C)c(S(=O)(=O)Nc2ccc(S(N)(=O)=O)c(Cl)c2)c1C(=O)N1CCC(F)(F)C1,DRD3,"Go activation, antagonist, BRET",,added: dopamine,> 100 µM
Cc1cccc(Nc2ccccc2C(=O)O)c1C,"UGT2B4 (Homo sapiens, UniProt P06133)","enzyme activity, inhibitor","human liver microsomes, 2% BSA",added: canagliflozin below Km,> 100 µM
O=P(O)(O)Oc1cccc(OP(=O)(O)O)c1OP(=O)(O)O,"INPPL1 (Homo sapiens, UniProt O15357)","enzyme activity, inhibitor, malachite green phosphate",,"5 min, 30 °C, untagged enzyme, added: Ins(1,3,4,5)P4 100 µM",> 1000 µM
O=c1c(O)c(-c2ccc(O)c(O)c2)oc2cc(O)cc(O)c12,"CHRM3 (Homo sapiens, UniProt P20309)",DMR desensitization,HT-29,added: acetylcholine,116 µM
CC/C(=N\NC(=O)NCc1cccc(O)c1)c1ccc(O)c(C)c1O,"PRKACB (Homo sapiens, UniProt P22694)","kinase activity, inhibitor",,,0.0122 ± 0.00095 µM
Cc1[nH]c(C)c(S(=O)(=O)Nc2ccc(C(F)(F)F)c(Cl)c2)c1C(=O)O,DRD3,"β-arrestin recruitment, antagonist, PathHunter",,added: dopamine EC80,> 100 µM
CC(C)(C)OC(=O)N1CCN(Cc2ccn(Cc3ccc(Cl)cc3)c(=O)c2O)CC1,HIF1AN,"enzyme activity, inhibitor, HTRF",,added: Fe(II) 5 µM,7.46 µM
CC[C@H](C)[C@H](NC(=O)[C@@H](N)CC(C)C)C(=O)N[C@@H](CCCCN)C(=O)N[C@@H](C)C(=O)N[C@@H](CCCCN)C(=O)N[C@@H](CCCNC(=N)N)C(=O)N[C@@H](CCCCN)C(=O)N[C@@H](CCCNC(=N)N)C(=O)N[C@@H](CCCCN)C(=O)N[C@@H](CCCCN)C(=O)O,"Coagulation factor V, activated factor Va (F5, Homo sapiens, UniProt P12259)","prothrombinase activity, inhibitor",,,110 µM
Cc1cccc(Cn2nnc3c4ccc(F)cc4c(=O)[nH]c32)c1,TNKS2,"ADP-ribosyltransferase activity, inhibitor, NAD+ consumption fluorescence",,,0.107 µM
O=C(O)CC(O)(CC(=O)O)C(=O)O,"HIF1AN (Homo sapiens, UniProt Q9NWT6, Q147A)","enzyme activity, inhibitor",,pH 7,140 ± 1 µM

# For quick reference, copied from above:
Structure (SMILES),target,assay,system,setting,IC50
Cc1[nH]c(C)c(S(=O)(=O)Nc2ccc(S(N)(=O)=O)c(Cl)c2)c1C(=O)N1CCC(F)(F)C1,DRD3,"Go activation, antagonist, BRET",,added: dopamine,> 100 µM
Cc1cccc(Nc2ccccc2C(=O)O)c1C,"UGT2B4 (Homo sapiens, UniProt P06133)","enzyme activity, inhibitor","human liver microsomes, 2% BSA",added: canagliflozin below Km,> 100 µM
O=P(O)(O)Oc1cccc(OP(=O)(O)O)c1OP(=O)(O)O,"INPPL1 (Homo sapiens, UniProt O15357)","enzyme activity, inhibitor, malachite green phosphate",,"5 min, 30 °C, untagged enzyme, added: Ins(1,3,4,5)P4 100 µM",> 1000 µM
